{"data": "Measured values of several laboratories", "note": "Every numbered part comes from another study and shows a few of its results, in no order. Positions count from the first letter of the parent shown."}
{"data": "Sample 1", "target": "RNA binding protein fox-1 homolog 2, RRM domain, GST-SBP tag (RBFOX2, Homo sapiens, UniProt O43251-10, residues 100-194)", "method": "RNA Bind-n-Seq", "form": "RNA", "medium": "in vitro", "concentration": "365 nM", "notes": "natural RNA segment, single round, ends assumed", "relative to": "no-protein control", "direction": "higher = stronger binding", "Residues (chain)": "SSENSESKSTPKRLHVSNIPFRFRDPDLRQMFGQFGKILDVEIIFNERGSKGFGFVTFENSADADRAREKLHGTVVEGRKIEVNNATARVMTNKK"}
{"Strand": "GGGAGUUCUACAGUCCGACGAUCUUUCUCCCCUCUUUGUGUGGCCCCAGCCAGGGCGGUGGGCAGUCCUGGUGUAGAGCACAAGCCUCUCCACCCUAGAGAAAUGCCUCUGUACCACGGCUACCAUGUGGAACUGGAAUUCUCGGGUGCCAA", "RBNS enrichment (R)": 0.492}
{"Strand": "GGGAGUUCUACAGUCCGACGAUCUGAUGUUUAGGAAUGUUUGUCUCAGCCACAGUUCCUUCAUAGCUUUUCCAAAAUGAAUUGGGAAAAAAAAAUCGUAUAGCAGUCUUAAAGCUUAGUAAUGGAACUUGGCUUGGAAUUCUCGGGUGCCAA", "RBNS enrichment (R)": 0.506}
{"Strand": "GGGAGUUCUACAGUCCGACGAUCUUGGGUCUCAGACUCAGUUUCCCCGUUCAUACAUACAGGGAGUAUGAAGUCAGGUAGCCUAAGAUCUCCCACUCCCUGCCUCCCUUUGACGUGGUACAGCCACCCCCACCUGGAAUUCUCGGGUGCCAA", "RBNS enrichment (R)": 0.269}
{"Strand": "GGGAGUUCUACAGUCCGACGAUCAGGCAUCUAUGGAGAUUAUUUUUUUGCUUCAUUUUAUAAAGUUGUAUUUAGAAAAGUCUUAAGUAUUGUGCUUUGUAAAGAAGAUGAUUAAAAUGAAAUUUUGUGAGAAUUGGAAUUCUCGGGUGCCAA", "RBNS enrichment (R)": 1.01}
{"Strand": "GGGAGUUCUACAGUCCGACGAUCGGGUGUGCUGGGGCAAGCAUCCUGAGACUCCUGUCUCCUGCAGAGGCCCUCCUUCCUGAAGACAGUCAGCCUGGGGCUCUUACCCUGAGACAAUGAGGGCCGCAUGAAGAUGGAAUUCUCGGGUGCCAA", "RBNS enrichment (R)": 7.69}
{"Strand": "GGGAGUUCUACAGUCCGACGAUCAUUGUGGGAAUUAAGGAAGUGACUCAUCCUCUUGAAGAUGCUGAAACAGGAGAGAAAGGGGAUGUAUCCAUGGGGGCAGGGCAUGACUUUGUCCCAUUUCUAAAGGCCUCUGGAAUUCUCGGGUGCCAA", "RBNS enrichment (R)": 0.53}
{"Strand": "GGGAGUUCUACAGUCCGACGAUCAAGCCUAACUUUGUCGCUAGUCCUAAGGAGAAACCUUUAACCACAAAGUUUUUAUCAUUGAAGACAAUAUUGAACAACCCCCUAUUUUGUGGGGAUUGAGAAGGGGUGAAUGGAAUUCUCGGGUGCCAA", "RBNS enrichment (R)": 0.416}
{"Strand": "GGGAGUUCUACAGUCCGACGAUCCUCUCCUUGCACCUUCUCCUGCCUCUCCACACUCCAGGUUCCCUCAGGCUUGUGUCCCCACUGCUGCAUCGUGGCGGGGUGUCACAGACCCUCUGCAGCCCCUGGCUGCCUGGAAUUCUCGGGUGCCAA", "RBNS enrichment (R)": 0.586}
{"data": "Sample 2", "target": "Interferon regulatory factor 5, full length, phosphomimetic (IRF5, Homo sapiens, UniProt Q13568-2, residues 1-514, S451D/S453D/S456D/S462D)", "method": "protein-binding microarray", "form": "double-stranded DNA, one strand shown", "medium": "in vitro", "concentration": "940 nM top", "notes": "60-bp whole probe", "together with": "salmon DNA 0.4 mg/ml", "relative to": "random background probes", "direction": "higher = stronger binding", "all sequences stand within": "GCCTAGCAC … GTCTTGATTCGCTTGACGCTGCTG"}
{"Strand": "GACGGTTTCAGTATCGAGACGTGCTAG", "fitted relative affinity": "6.71 z-score"}
{"Strand": "TTAGATTCCCGTTTCGATTAGTGCTAG", "fitted relative affinity": "3.67 z-score"}
{"Strand": "GACGAAATGGGGACTGGAGACGTGCTA", "fitted relative affinity": "0.00343 z-score"}
{"Strand": "GACGGACTGGGGTTTCGGGTCGTGCTA", "fitted relative affinity": "3.82 z-score"}
{"Strand": "TCATGTTGTTTTTTGGTACTGTGCTAG", "fitted relative affinity": "1.29 z-score"}
{"Strand": "TTACATCTCAGTCTCGATTAGTGCTAG", "fitted relative affinity": "3.7 z-score"}
{"Strand": "TCATCACTCTAATCTCACACTGTGCTA", "fitted relative affinity": "0.962 z-score"}
{"Strand": "TCATTTTTTCTTTTATTACTGTGCTAG", "fitted relative affinity": "2.14 z-score"}
{"Strand": "TTAGGTATCGACTATTGGTTAGTGCTA", "fitted relative affinity": "4.91 z-score"}
{"Strand": "TTAGGTAGCGGACTGGGTTAGTGCTAG", "fitted relative affinity": "-0.231 z-score"}
{"Strand": "TCATTATTTATTTTTACACTGTGCTAG", "fitted relative affinity": "1.46 z-score"}
{"Strand": "GACCGACTGGGACTGGGGACGTGCTAG", "fitted relative affinity": "-0.802 z-score"}
{"Strand": "TCAACTTTCCAAAGCGTACTGTGCTAG", "fitted relative affinity": "0.396 z-score"}
{"Strand": "GACGAACTAAGTATCGAGACGTGCTAG", "fitted relative affinity": "1.2 z-score"}
{"Strand": "GACGGTTTCCTACTCCTGACGTGCTAG", "fitted relative affinity": "0.933 z-score"}
{"Strand": "TTGTTTCTAATATTCTGCTTGTGCTAG", "fitted relative affinity": "1.27 z-score"}
{"Strand": "GACGAACTGGGGTTTCGTGACGTGCTA", "fitted relative affinity": "0.753 z-score"}
{"Strand": "GACGGTTCCCTTTTCCTAACGTGCTAG", "fitted relative affinity": "0.596 z-score"}
{"data": "Sample 3", "target": "Histone acetyltransferase KAT6A, winged helix 1, GST fusion (KAT6A, Homo sapiens, UniProt Q92794, residues 1-85)", "method": "protein binding microarray", "form": "double-stranded DNA, one strand shown", "medium": "in vitro", "concentration": "not given", "notes": "8-mer, flanks averaged, mean of 2 arrays, mostly near background", "relative to": "not given", "direction": "higher = stronger binding", "Residues (chain)": "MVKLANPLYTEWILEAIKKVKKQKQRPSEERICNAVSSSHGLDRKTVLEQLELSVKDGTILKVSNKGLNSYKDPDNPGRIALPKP"}
{"Strand": "GGAATCCC", "E-score": -0.0524}
{"Strand": "CACAGTAC", "E-score": -0.156}
{"Strand": "AACAAAGC", "E-score": 0.0883}
{"Strand": "ATATGTTG", "E-score": -0.096}
{"Strand": "ACAGCCAG", "E-score": -0.116}
{"Strand": "GGACTATA", "E-score": 0.00594}
{"Strand": "CAAATTGA", "E-score": -0.238}
{"Strand": "CGGTGTTA", "E-score": 0.157}
{"Strand": "GCGCCTAC", "E-score": 0.264}
{"Strand": "AGTGAGCG", "E-score": -0.0317}
{"Strand": "AAGTGCTA", "E-score": -0.182}
{"Strand": "GGATTGTA", "E-score": -0.0138}
{"Strand": "ATTCTTAG", "E-score": -0.146}
{"Strand": "AGTGCGTG", "E-score": 0.0254}
{"Strand": "CTGAACGC", "E-score": 0.132}
{"Strand": "GCGCCGAC", "E-score": 0.418}
{"Strand": "CCTTCCCC", "E-score": -0.0102}
{"Strand": "CGGAAAGA", "E-score": 0.174}
{"Strand": "TACAACGA", "E-score": -0.164}
{"Strand": "CCGAATGA", "E-score": 0.0255}
{"Strand": "ACAGTATC", "E-score": -0.193}
{"Strand": "GACAACGC", "E-score": 0.198}
{"Strand": "AAACGAGC", "E-score": -0.122}
{"Strand": "ACAGGACT", "E-score": -0.196}
{"Strand": "CATTCAGA", "E-score": -0.155}
{"data": "Sample 4", "target": "CCND3, cyclin fold, Cln2 fusion (human)", "method": "yeast growth competition, sequencing", "medium": "yeast", "notes": "weak parent motif", "relative to": "not given", "direction": "higher = stronger binding", "starting sequence": "E2F7 docking peptide (human); SSAQRRLEIPSGG; partner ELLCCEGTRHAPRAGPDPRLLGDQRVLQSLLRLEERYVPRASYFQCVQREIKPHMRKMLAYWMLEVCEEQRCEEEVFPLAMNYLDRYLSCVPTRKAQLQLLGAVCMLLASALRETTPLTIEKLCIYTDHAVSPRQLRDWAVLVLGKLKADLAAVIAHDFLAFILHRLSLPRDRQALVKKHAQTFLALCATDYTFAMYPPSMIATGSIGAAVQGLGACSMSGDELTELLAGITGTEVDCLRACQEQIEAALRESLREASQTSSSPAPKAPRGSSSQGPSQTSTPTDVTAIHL"}
{"Change": "Q4A", "normalised enrichment score": 0.13}
{"Change": "R5K", "normalised enrichment score": -0.232}
{"Change": "G12A", "normalised enrichment score": 0.0287}
{"Change": "R5A L7A", "normalised enrichment score": 0.047}
{"Change": "R5K I9L", "normalised enrichment score": 0.141}
{"Change": "S1A", "normalised enrichment score": 0.163}
{"Change": "L7A", "normalised enrichment score": 0.134}
{"Change": "R6A", "normalised enrichment score": -0.0414}
{"Change": "S11A", "normalised enrichment score": 0.0575}
{"note": "Repeated from above (sample 2):"}
{"Strand": "GACGAACTAAGTATCGAGACGTGCTAG", "fitted relative affinity": "1.2 z-score"}
{"Strand": "TTAGGTATCGACTATTGGTTAGTGCTA", "fitted relative affinity": "4.91 z-score"}
{"Strand": "TCATTATTTATTTTTACACTGTGCTAG", "fitted relative affinity": "1.46 z-score"}
{"Strand": "TCATCACTCTAATCTCACACTGTGCTA", "fitted relative affinity": "0.962 z-score"}
{"Strand": "GACGGTTTCCTACTCCTGACGTGCTAG", "fitted relative affinity": "0.933 z-score"}
{"Strand": "GACGAAATGGGGACTGGAGACGTGCTA", "fitted relative affinity": "0.00343 z-score"}
{"Strand": "TTACATCTCAGTCTCGATTAGTGCTAG", "fitted relative affinity": "3.7 z-score"}
{"Strand": "TTAGGTAGCGGACTGGGTTAGTGCTAG", "fitted relative affinity": "-0.231 z-score"}
{"Strand": "GACGAACTGGGGTTTCGTGACGTGCTA", "fitted relative affinity": "0.753 z-score"}
